Experimental data from different studies.
Compare with care: the assays were run in different laboratories. Numbers after ± are the reported error.

Compound | cell line | test | test system | setting | how to read | measurement | value
COC(=O)C1CN1S(=O)(=O)c1ccc(N(C)C)cc1 (centres unmarked) | Balb/c 3T3 fibroblasts | cytotoxicity, neutral red uptake | DMEM with 5% FBS | 24 h | – | IC50 | 130 ± 6 µM
CC[C@H](C)[C@H](NC(=O)[C@@H](CCCCN)NC(=O)[C@H](CCCCN)NC(=O)[C@H](Cc1ccccc1)NC(=O)[C@H](CC(C)C)NC(=O)[C@@H](CCCCN)NC(=O)[C@H](Cc1c[nH]c2ccccc12)NC(=O)[C@H](CCCCN)NC(C)=O)C(=O)NCC(=O)N[C@@H](C)C(=O)N[C@H](C(=O)N[C@@H](CC(C)C)C(=O)N[C@@H](CCCCN)C(=O)N[C@H](CCCCN)C(=O)N[C@@H](CC(C)C)C(N)=O)C(C)C | RAW264.7 | cell viability, MTT | – | 1 h, 37 °C | – | LD50 | 126 ± 11 µM
COCC12C(=O)NC3C4(C(OC)CC1O)C1CC5(O)C(OC)C(O)C(OC(C)=O)(C1C5OC(=O)c1ccccc1)C3(O)C(OC)C24 (centres unmarked) | PC-12 transfected with EGFP-MK5 | – | – | 20 µM | – | cytotoxicity | not toxic
C[C@@H]1NC(=O)[C@H](CCC(=O)O)NC(=O)[C@@H]2CSSC[C@H](NC(=O)[C@H](CCCCN)NC(=O)CNC1=O)C(=O)N[C@@H](CO)C(=O)N[C@H]1CSSC[C@H](NC(=O)[C@H](CC(=O)O)NC(=O)[C@@H]3CSSC[C@H](NC(=O)[C@H](Cc4ccc(O)cc4)NC1=O)C(=O)N[C@@H](CC(=O)O)C(=O)N[C@@H](C)C(=O)NCC(=O)N[C@@H](CC(=O)O)C(=O)N3)C(=O)N[C@@H](CCCCN)C(=O)N2 | OVCAR-3 | CellTiter-Glo | – | 200 µM | – | viability | ~65%
COc1c(C(=O)/C=C(\O)c2ccccc2)ccc2c1C=CC(C)(C)O2 | differentiated SH-SY5Y | MTT | – | 100 µM | relative to: control | viability | 82.3 ± 2.5%
CCCCn1cc(C(=O)O)c(=O)c2cc(F)c(Nc3cccc(Cl)c3)c([N+](=O)[O-])c21 | PANC-1 | cell growth, SRB | – | 72 h | – | IC50 | 21.3 ± 2.63 µg/mL
COc1cc2c(c3oc(-c4ccccc4)cc(=O)c13)C=CC(C)(C)O2 | differentiated SH-SY5Y | MTT | – | 1 µM | relative to: control | viability | 103 ± 2.7%
CCCCn1cc(C(=O)O)c(=O)c2cc(F)c3c(nnn3-c3ccccc3Cl)c21 | T47D | cell growth or viability, SRB | – | – | – | IC50 | 173 µM
N=C(N)c1ccc2nc(-c3ccc(-c4nc5ccc(C(=N)N)cc5[nH]4)[se]3)[nH]c2c1 | HEK293 cells | viability, resazurin reduction | – | 24 h, 10% fetal bovine serum | up to | maximum non-toxic concentration | > 10 µM
CC(=O)N[C@@H](CO)C(=O)N[C@@H](CC(=O)O)C(=O)N[C@@H](CCCCNC(=O)CCCC[C@@H]1SC[C@@H]2NC(=O)N[C@@H]21)C(=O)N1CCC[C@H]1C(=O)O | A549 | flow cytometry | – | 40 µg/mL, 15 min, 37 °C | relative to: cells | cellular uptake | 17.7 ± 0.5%
CO/C(=C\C(=O)c1ccc2occc2c1OC)c1ccccc1 | differentiated SH-SY5Y | MTT | – | 1 µM | relative to: control | viability | 101 ± 11.1%
COc1cc(C=CC(=O)CC(=O)C=Cc2ccc(OC(=O)CCC(=O)OC3OC4OC5(C)CCC6C(C)CCC(C3C)C46OO5)c(OC)c2)ccc1OC(=O)CCC(=O)OC1OC2OC3(C)CCC4C(C)CCC(C1C)C24OO3 (centres unmarked) | C3PV normal primary fibroblasts | MTT | – | concentration not given | – | cytotoxicity | not toxic
COc1c2c(cc3oc(-c4ccccc4)cc(=O)c13)OC(C)(C)C=C2 | differentiated SH-SY5Y | MTT | – | 10 µM | relative to: control | viability | 95.3 ± 1.5%
N=C(N)NCCC[C@@H]1NC(=O)[C@H](Cc2csc3ccccc23)NC(=O)[C@@H](Cc2ccccc2)NC(=O)[C@H](Cc2ccccc2)NC(=O)[C@H](CCC(=O)NCCOCCOCC(=O)N[C@@H](CCCCNC(=O)c2ccc3c(c2)C(=O)OC32c3ccc4cc(O)ccc4c3Oc3c2ccc2cc(O)ccc32)C(N)=O)NC(=O)[C@@H](CCCNC(=N)N)NC(=O)[C@H](CCCNC(=N)N)NC(=O)[C@@H](CCCNC(=N)N)NC1=O | HeLa | cell penetration, flow cytometry | – | 1.0 µM, 2 h, 1% FBS | relative to: CPP12 | cytosolic entry | 145 ± 21%
